Published values gathered from unrelated publications.
Each numbered part is a random draw from the data of one study; scales do not carry over between parts. Changes are numbered by the printed parent chain.

Set 1
Target: ABI1, truncated, D143A, DHFR fusion (Arabidopsis thaliana)
Method: DHFR PCA, deep sequencing
Sample: yeast
Setting: methotrexate growth selection, single substitutions
Together with: (+)-ABA 2500 µM
Relative to: wild-type fitted maximum
Direction: higher = stronger binding
Starting sequence: PYL1, truncated, DHFR fusion (Arabidopsis thaliana); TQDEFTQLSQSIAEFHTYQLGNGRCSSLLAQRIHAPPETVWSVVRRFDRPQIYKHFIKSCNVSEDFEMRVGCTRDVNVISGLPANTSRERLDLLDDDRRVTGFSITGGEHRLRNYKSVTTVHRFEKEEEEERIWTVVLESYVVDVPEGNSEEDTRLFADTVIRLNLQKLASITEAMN; partner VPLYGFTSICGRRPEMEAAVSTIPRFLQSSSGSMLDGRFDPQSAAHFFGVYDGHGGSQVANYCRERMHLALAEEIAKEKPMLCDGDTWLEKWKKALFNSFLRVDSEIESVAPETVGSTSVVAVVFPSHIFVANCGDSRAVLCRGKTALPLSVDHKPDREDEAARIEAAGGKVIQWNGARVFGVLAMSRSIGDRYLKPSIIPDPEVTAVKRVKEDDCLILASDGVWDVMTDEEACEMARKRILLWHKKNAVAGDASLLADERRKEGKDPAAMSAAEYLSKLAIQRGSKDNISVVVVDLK
`T1F`: “relative binding score” 97.8%.
For `T101N`, “relative binding score” read 68.3%.
For `A35Q`, “relative binding score” read 83%.
Under “relative binding score”, `E131A` is recorded as 107%.
Under “relative binding score”, `F15Y` is recorded as 96.2%.
For `C60R`, “relative binding score” read 37.9%.
`L169I`: “relative binding score” 73.8%.
`G21P` — result for “relative binding score”: 97%.
`I105G`: “relative binding score” 51.3%.
`S80R`: “relative binding score” 78.9%.
`Q19C` — result for “relative binding score”: 98.6%.
`G107L` — result for “relative binding score”: 77.2%.
For `R49P`, “relative binding score” read 2.77%.
Under “relative binding score”, `S59P` is recorded as 56.5%.
`W41D`: “relative binding score” -8.5%.
For `I105L`, “relative binding score” read 81.9%.
Under “relative binding score”, `R46Q` is recorded as 94.1%.
`Q31L` — result for “relative binding score”: 73.7%.
`Y115T`: “relative binding score” 8.93%.
Under “relative binding score”, `H122E` is recorded as 97.3%.
For `Y141K`, “relative binding score” read -14.5%.
`H122N`: “relative binding score” 94.1%.
For `G102M`, “relative binding score” read 89.2%.
For `D95I`, “relative binding score” read 86.6%.
Under “relative binding score”, `R24F` is recorded as 95.5%.

Set 2
Target: CCNE2, cyclin fold, Cln2 fusion (human)
Method: yeast growth competition, sequencing
Sample: yeast
Setting: strong parent motif
Relative to: not given
Direction: higher = stronger binding
Starting sequence: SCAPER docking peptide (human); SNARRSLNFGGST; partner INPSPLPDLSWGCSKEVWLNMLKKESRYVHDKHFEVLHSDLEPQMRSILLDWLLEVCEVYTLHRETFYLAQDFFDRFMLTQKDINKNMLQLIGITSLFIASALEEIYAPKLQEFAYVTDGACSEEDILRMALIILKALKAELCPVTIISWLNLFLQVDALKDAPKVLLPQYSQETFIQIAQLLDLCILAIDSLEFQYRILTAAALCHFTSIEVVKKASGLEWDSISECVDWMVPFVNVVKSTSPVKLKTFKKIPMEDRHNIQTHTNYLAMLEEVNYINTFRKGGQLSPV
For `R5Y`, “normalised enrichment score” read 0.192.
`A3T` — result for “normalised enrichment score”: 0.933.
For `S1E`, “normalised enrichment score” read 0.496.
Under “normalised enrichment score”, `R5I` is recorded as 0.485.
`N2F` — result for “normalised enrichment score”: 1.4.
Under “normalised enrichment score”, `A3W` is recorded as 0.299.
`G11R` — result for “normalised enrichment score”: 0.436.
Under “normalised enrichment score”, `G10I` is recorded as 0.457.
For `R4Q`, “normalised enrichment score” read -0.239.
Under “normalised enrichment score”, `G10V` is recorded as 0.112.
`R4E` — result for “normalised enrichment score”: -0.552.
For `N8E`, “normalised enrichment score” read 0.694.
`G11D` — result for “normalised enrichment score”: 1.34.
`S1W` — result for “normalised enrichment score”: 1.61.
`G10L`: “normalised enrichment score” 0.88.
`S6I`: “normalised enrichment score” 3.37.
For `R4S`, “normalised enrichment score” read -0.325.
`G11P`: “normalised enrichment score” 0.855.

Set 3
Substance: PhoQ, residues 284 288 289 292 302 303 SLANIV
Method: Sort-seq
Refers to: YFP reporter
Sample: E. coli
Setting: PhoQ-PhoP variant library
Together with: 10 µM Mg2+
Relative to: high Mg2+ state
Direction: higher = stronger signaling
It gave 3.54 for fold induction (PhoP, residues 12 14 15 18 19 TPWTL (Escherichia coli, UniProt P23836)).
PhoP, residues 12 14 15 18 19 NFFVT (Escherichia coli, UniProt P23836) — fold induction: 15.9.
For PhoP, residues 12 14 15 18 19 VGHWL (Escherichia coli, UniProt P23836): fold induction read 5.43.
For PhoP, residues 12 14 15 18 19 LHHYF (Escherichia coli, UniProt P23836): fold induction read 21.7.

Set 4
Target: Sal-like protein 4, full length isoform A (SALL4, Homo sapiens, UniProt Q9UJQ4, residues 1-1053)
Sequence of UniProt Q9UJQ4 (whole entry, looked up): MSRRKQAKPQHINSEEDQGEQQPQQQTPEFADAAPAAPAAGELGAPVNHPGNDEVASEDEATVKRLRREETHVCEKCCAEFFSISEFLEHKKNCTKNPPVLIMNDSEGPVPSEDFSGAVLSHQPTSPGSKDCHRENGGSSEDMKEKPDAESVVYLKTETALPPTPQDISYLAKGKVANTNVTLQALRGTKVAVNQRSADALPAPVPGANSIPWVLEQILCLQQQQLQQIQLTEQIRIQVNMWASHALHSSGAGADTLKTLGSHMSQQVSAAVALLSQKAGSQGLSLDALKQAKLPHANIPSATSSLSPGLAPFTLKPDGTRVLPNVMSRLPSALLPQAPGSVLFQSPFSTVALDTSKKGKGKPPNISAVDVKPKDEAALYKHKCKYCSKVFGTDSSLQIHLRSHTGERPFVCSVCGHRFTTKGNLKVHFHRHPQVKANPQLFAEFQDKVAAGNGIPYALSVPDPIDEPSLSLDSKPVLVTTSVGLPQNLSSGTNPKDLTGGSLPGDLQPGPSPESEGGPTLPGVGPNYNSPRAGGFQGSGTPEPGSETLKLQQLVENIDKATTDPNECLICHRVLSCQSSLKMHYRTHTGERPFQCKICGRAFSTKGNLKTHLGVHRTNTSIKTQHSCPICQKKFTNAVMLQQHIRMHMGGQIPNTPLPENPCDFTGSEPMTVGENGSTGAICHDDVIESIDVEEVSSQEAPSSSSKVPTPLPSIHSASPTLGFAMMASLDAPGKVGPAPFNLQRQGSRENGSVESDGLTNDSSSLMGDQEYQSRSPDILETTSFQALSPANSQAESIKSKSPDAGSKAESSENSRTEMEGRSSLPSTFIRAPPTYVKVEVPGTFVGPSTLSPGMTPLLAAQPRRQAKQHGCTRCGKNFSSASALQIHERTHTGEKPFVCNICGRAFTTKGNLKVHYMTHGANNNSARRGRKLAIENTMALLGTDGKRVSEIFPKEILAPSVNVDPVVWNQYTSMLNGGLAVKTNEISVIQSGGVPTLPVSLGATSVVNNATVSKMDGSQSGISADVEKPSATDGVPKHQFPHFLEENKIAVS
Method: universal PBM
Molecule type: double-stranded DNA, one strand shown
Sample: in vitro
Tested at: 600 nM
Setting: 8-mer, flanks averaged, mean of replicates
Direction: higher = stronger binding
For `GGGTTCAC`, the E-score was -0.228.
The E-score of `ATGCTTTA` is reported as 0.144.
`CATTCTCA` has an E-score of 0.195.
With `CGTACTAC` the E-score was 0.0348.
`GCTATTAC` gave an E-score of 0.257.
The E-score of `GAGCGACC` is reported as -0.241.
With `AACACTGG` the E-score was 0.0822.
`AATAATGG` gave an E-score of 0.247.
For `CTACACCA`, the E-score was 0.151.
With `ACAGGGTC` the E-score was -0.263.
`CGAAGGCG` gave an E-score of -0.171.
With `AATTTCAC` the E-score was 0.26.
`CGGATGCC` gave an E-score of -0.145.
With `AGCCTCAT` the E-score was 0.0257.
With `AGCGCAAA` the E-score was 0.0303.
With `AACTTCGG` the E-score was 0.0153.

Repeated from above (set 1):
For `T101N`, “relative binding score” read 68.3%.
Under “relative binding score”, `H122E` is recorded as 97.3%.
`G107L` — result for “relative binding score”: 77.2%.
`T1F`: “relative binding score” 97.8%.
`S80R`: “relative binding score” 78.9%.
`Y115T`: “relative binding score” 8.93%.
